# Measured values of several laboratories.
# Parts stem from different laboratories: compare values within a part only.
# Chain of UniProt Q2M2I8 (whole entry, looked up): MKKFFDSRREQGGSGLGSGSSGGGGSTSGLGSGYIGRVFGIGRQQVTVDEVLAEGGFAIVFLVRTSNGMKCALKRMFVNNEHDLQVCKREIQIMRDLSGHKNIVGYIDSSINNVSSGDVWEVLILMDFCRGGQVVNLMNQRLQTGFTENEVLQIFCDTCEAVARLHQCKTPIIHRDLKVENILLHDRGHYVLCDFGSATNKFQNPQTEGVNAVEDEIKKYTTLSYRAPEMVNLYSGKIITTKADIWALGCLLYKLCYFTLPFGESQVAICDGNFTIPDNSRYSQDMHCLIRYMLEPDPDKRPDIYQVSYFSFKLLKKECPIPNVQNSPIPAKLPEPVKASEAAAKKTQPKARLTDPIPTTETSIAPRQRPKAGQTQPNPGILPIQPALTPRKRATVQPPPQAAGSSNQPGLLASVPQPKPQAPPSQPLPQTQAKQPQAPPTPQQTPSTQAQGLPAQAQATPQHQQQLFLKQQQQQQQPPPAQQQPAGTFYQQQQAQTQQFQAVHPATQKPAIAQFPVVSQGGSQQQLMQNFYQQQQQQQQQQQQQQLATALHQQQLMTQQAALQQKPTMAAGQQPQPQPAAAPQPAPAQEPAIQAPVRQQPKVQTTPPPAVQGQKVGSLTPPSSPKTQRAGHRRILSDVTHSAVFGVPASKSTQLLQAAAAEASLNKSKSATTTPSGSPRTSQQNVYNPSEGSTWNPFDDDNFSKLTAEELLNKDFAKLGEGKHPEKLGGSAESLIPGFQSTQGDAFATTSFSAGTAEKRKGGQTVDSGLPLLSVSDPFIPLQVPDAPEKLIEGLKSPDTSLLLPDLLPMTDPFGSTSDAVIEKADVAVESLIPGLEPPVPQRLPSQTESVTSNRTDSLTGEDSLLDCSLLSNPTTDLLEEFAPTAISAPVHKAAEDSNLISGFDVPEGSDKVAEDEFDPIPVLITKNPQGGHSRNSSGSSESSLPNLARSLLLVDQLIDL

# Series 1
# Target: Ephrin type-A receptor 7 (EPHA7, Homo sapiens, UniProt Q15375)
# Chain of UniProt Q15375 (whole entry, looked up): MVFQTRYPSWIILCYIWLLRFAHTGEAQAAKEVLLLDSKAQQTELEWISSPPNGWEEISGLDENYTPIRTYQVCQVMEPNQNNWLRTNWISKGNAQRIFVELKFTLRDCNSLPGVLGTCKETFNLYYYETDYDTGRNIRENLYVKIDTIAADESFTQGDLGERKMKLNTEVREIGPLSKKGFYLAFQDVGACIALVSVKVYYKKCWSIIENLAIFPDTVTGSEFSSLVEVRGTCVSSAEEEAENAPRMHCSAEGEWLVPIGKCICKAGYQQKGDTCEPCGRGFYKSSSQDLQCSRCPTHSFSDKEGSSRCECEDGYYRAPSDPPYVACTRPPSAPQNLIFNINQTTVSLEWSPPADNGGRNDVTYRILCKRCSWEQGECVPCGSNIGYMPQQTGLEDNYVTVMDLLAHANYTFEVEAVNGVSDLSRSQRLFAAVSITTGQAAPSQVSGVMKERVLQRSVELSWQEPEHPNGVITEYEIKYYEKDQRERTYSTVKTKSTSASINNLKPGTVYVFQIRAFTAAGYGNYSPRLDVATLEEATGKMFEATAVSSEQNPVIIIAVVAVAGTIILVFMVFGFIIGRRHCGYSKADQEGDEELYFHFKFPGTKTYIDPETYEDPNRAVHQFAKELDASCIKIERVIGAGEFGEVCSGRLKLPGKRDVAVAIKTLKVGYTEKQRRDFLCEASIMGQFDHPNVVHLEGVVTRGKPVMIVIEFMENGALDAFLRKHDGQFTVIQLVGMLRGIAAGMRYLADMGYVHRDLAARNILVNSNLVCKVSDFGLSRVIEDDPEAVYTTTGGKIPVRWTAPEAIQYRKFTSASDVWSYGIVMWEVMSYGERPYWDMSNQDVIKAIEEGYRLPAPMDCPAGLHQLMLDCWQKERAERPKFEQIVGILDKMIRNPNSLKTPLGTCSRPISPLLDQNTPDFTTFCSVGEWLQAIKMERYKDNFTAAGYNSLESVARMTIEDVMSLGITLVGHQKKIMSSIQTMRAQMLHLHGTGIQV
# Effect on: enzyme activity
# Action: inhibitor
# Concentration: 0.5 µM
# Reference: control
SMILES,remaining activity
Nc1nccc(-c2c(-c3ccc(F)cc3)ncn2C2CCNCC2)n1,94%
COc1cc(Nc2c(C#N)cnc3cc(OCCCN4CCN(C)CC4)c(OC)cc23)c(Cl)cc1Cl,77.2%
NC(=O)c1ccc(N(C(N)=O)c2c(F)cccc2F)nc1-c1ccc(F)cc1F,79.9%
Oc1ccc(Nc2nc(-c3ccc(Cl)cc3)cs2)cc1,97.7%
Cc1cncc2cccc(S(=O)(=O)N3CCCN(C(=O)CN)C[C@@H]3C)c12,90.7%
CC#CC(=O)Nc1cc2c(Nc3ccc(F)c(Cl)c3)ncnc2cn1,91.3%
Fc1ccc(-c2nc3n(c2-c2ccncc2)CCS3)cc1,76.3%
CC(=O)c1ccc(N2CCOCC2)cc1O,95.5%
N#CC(=C(N)Sc1ccc(N)cc1)c1ccccc1C(F)(F)F,105%
O=S(=O)(NCCNC/C=C/c1ccc(Br)cc1)c1cccc2cnccc12,109%
CC[n+]1c(/C=C/N(C)c2ccccc2)n(-c2ccccc2)c2ccc(-c3nc4ccccc4s3)cc21,97.9%
CC(C)(C)n1nc(Cc2cccc3ccccc23)c2c(N)ncnc21,90.4%
O=C1NC(=O)C(c2c[nH]c3ccccc23)=C1c1c[nH]c2ccccc12,94.3%
CCc1[nH]c(-c2ccc(OC)cc2)nc1-c1ccncc1,91.6%
CSc1nc(-c2ccnc(N[C@@H](C)c3ccccc3)c2)c(-c2ccc(F)cc2)[nH]1 (racemic),102%
Nc1ncnc2c1cnn2-c1ccccc1,99.2%
O=C1Cc2c([nH]c3ccc([N+](=O)[O-])cc23)-c2ccccc2N1,95%
Cc1cc(Nc2nc(-c3ccccc3)nc3ccccc23)n[nH]1,72.5%
CCCC(=O)Oc1ccc2[nH]c(C(=O)c3cc4ccccc4[nH]3)cc2c1,97.2%
Nc1nc(Nc2ccc(S(N)(=O)=O)cc2)nn1C(=O)c1c(F)cccc1F,68.7%

# Series 2
# Compound: C=CCc1ccc(O)c(-c2cc(CC=C)ccc2O)c1
# Effect on: chloride current
# Method: whole-cell voltage clamp
# ANO1 del476-501/F646A: Anoctamin-1 (ANO1, Homo sapiens, UniProt Q5XXA6, del476-501/F646A)
# Chain of UniProt Q5XXA6 (whole entry, unmodified, looked up): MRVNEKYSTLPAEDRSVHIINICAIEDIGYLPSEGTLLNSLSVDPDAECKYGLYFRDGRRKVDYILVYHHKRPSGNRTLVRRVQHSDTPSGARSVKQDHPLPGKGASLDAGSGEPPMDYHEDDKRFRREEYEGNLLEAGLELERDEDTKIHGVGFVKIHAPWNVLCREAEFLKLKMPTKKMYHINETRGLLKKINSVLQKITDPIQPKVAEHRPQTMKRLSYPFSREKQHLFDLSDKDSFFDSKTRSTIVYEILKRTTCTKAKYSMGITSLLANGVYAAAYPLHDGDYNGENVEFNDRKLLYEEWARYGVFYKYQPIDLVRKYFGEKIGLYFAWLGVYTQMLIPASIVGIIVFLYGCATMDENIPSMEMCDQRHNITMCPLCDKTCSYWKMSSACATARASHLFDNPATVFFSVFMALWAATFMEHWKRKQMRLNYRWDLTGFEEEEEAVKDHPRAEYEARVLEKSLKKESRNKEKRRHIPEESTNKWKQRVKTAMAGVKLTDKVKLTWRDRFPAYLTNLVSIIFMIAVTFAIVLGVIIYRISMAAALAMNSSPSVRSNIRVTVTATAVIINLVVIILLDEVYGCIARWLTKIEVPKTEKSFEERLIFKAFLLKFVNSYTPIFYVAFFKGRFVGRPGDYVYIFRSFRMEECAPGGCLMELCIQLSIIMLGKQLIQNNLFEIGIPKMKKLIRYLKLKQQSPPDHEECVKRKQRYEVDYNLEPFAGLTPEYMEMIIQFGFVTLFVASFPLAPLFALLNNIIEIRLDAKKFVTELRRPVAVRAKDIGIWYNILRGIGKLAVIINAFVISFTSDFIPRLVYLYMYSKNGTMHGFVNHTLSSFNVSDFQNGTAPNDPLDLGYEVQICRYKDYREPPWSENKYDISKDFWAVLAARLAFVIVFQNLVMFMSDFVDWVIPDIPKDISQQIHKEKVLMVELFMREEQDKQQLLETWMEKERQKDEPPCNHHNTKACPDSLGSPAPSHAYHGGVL
# ANO1 del476-501/L548A: Anoctamin-1 (ANO1, Homo sapiens, UniProt Q5XXA6, del476-501/L548A)
target,action,concentration,setting,together with,IC50 [µM]
"Anoctamin-1 (ANO1, Homo sapiens, UniProt Q5XXA6, del476-501/F807A)",,,membrane voltage 60 mV,,19.9
"Anoctamin-1 (ANO1, Homo sapiens, UniProt Q5XXA6, del476-501/F623A)",,,membrane voltage 80 mV,,24.6
"Anoctamin-1 (ANO1, Homo sapiens, UniProt Q5XXA6, del476-501)",,,membrane voltage -100 mV,300 nM Ca2+,31.4
"Anoctamin-1 (ANO1, Homo sapiens, UniProt Q5XXA6, del476-501/M544A)",,,membrane voltage 80 mV,,92.2
"Anoctamin-1 (ANO1, Homo sapiens, UniProt Q5XXA6, del476-501/M544T)",inhibitor,100 mV holding voltage,,,31.9
"Anoctamin-1 (ANO1, Homo sapiens, UniProt Q5XXA6, del476-501/M544I)",inhibitor,,mutant M518I,,176
ANO1 del476-501/F646A,,,membrane voltage 60 mV,,22.2
"Anoctamin-1 (ANO1, Homo sapiens, UniProt Q5XXA6, del476-501/K629I)",inhibitor,60 mV holding voltage,,,262
"Anoctamin-1 (ANO1, Homo sapiens, UniProt Q5XXA6, del476-501/K629D)",inhibitor,80 mV holding voltage,,,264
"Anoctamin-1 (ANO1, Homo sapiens, UniProt Q5XXA6, del476-501/R541D)",inhibitor,,R515D mutant at -60 mV,,157
ANO1 del476-501/L548A,,,membrane voltage 60 mV,,32.3
"Anoctamin-1 (ANO1, Homo sapiens, UniProt Q5XXA6, del476-501/E649I)",inhibitor,,E623I mutant at -20 mV,,136
"Anoctamin-1 (ANO1, Homo sapiens, UniProt Q5XXA6, del476-501/F803A)",,,membrane voltage 20 mV,,19.2
ANO1 del476-501/F646A,inhibitor,,pore pocket mutant F620A at 100 mV,300 nM Ca2+,29.2
ANO1 del476-501/L548A,,,membrane voltage 100 mV,,36.6
"Anoctamin-1 (ANO1, Homo sapiens, UniProt Q5XXA6, del476-501/E649K)",inhibitor,,E623K mutant at -40 mV,,140
"Anoctamin-1 (ANO1, Homo sapiens, UniProt Q5XXA6, D383A/del476-501)",,,membrane voltage 60 mV,,26.2

# Series 3
# Cell line: A-375
# Concentration: 100 µM
# Time: 36 h
Structure (SMILES),viability [%]
CN1CCOC(c2ccccc2)c2ccccc2C1 (stereo not shown),105
CC(=O)[C@H]1CC[C@H]2[C@@H]3CCC4=CC(=O)CC[C@]4(C)[C@H]3CC[C@]12C,2.61
CC(=O)NS(=O)(=O)c1ccc(NC(=O)c2ccccc2C(=O)O)cc1,113
O=C(NC(Cc1cc(=O)[nH]c2ccccc12)C(=O)O)c1ccc(Cl)cc1 (stereo not shown),111
C[C@@H]1O[C@@H]1P(=O)(O)O,89.6
CCCNC(=O)NS(=O)(=O)c1ccc(Cl)cc1,96.5
C[n+]1cc2c3c(ccc2c2ccc4cc5c(cc4c21)OCO5)OCO3,-1.92
O=C(Nc1ccc([N+](=O)[O-])cc1Cl)c1cc(Cl)ccc1O,12.5
CC(C)(CO)C(O)C(=O)NCCCO (stereo not shown),106
Cc1cccc(Nc2ccccc2C(=O)O)c1C,72.6
Cn1cnc([N+](=O)[O-])c1Sc1ncnc2nc[nH]c12,60.2
CN(C/C=C/c1ccccc1)Cc1cccc2ccccc12,23.1
CN(C)CCOC(C)(c1ccccc1)c1ccccn1 (stereo not shown),6.72
OC[C@@H](O)[C@@H](O)[C@H](O)[C@@H](O)CO,101

# Further values, each from its own experiment
Structure (SMILES),target,effect on,concentration,endpoint,result
Cn1cncc1[C@](O)(COc1ccc(C#N)cc1-c1ccc(OC(F)(F)F)cc1)c1ccc(C#N)cc1,"AP2-associated protein kinase 1 (AAK1, Homo sapiens, UniProt Q2M2I8)",binding,1 µM,remaining binding,87%

# A few entries again (series 1):
SMILES,remaining activity
CCc1[nH]c(-c2ccc(OC)cc2)nc1-c1ccncc1,91.6%
CSc1nc(-c2ccnc(N[C@@H](C)c3ccccc3)c2)c(-c2ccc(F)cc2)[nH]1 (racemic),102%
Nc1ncnc2c1cnn2-c1ccccc1,99.2%
O=C1Cc2c([nH]c3ccc([N+](=O)[O-])cc23)-c2ccccc2N1,95%
Cc1cc(Nc2nc(-c3ccccc3)nc3ccccc23)n[nH]1,72.5%
